Results of several laboratories.
Compare with care: the assays were run in different laboratories. ± marks the error that the study gave.
UniProt Q13315, sequence (whole entry, looked up): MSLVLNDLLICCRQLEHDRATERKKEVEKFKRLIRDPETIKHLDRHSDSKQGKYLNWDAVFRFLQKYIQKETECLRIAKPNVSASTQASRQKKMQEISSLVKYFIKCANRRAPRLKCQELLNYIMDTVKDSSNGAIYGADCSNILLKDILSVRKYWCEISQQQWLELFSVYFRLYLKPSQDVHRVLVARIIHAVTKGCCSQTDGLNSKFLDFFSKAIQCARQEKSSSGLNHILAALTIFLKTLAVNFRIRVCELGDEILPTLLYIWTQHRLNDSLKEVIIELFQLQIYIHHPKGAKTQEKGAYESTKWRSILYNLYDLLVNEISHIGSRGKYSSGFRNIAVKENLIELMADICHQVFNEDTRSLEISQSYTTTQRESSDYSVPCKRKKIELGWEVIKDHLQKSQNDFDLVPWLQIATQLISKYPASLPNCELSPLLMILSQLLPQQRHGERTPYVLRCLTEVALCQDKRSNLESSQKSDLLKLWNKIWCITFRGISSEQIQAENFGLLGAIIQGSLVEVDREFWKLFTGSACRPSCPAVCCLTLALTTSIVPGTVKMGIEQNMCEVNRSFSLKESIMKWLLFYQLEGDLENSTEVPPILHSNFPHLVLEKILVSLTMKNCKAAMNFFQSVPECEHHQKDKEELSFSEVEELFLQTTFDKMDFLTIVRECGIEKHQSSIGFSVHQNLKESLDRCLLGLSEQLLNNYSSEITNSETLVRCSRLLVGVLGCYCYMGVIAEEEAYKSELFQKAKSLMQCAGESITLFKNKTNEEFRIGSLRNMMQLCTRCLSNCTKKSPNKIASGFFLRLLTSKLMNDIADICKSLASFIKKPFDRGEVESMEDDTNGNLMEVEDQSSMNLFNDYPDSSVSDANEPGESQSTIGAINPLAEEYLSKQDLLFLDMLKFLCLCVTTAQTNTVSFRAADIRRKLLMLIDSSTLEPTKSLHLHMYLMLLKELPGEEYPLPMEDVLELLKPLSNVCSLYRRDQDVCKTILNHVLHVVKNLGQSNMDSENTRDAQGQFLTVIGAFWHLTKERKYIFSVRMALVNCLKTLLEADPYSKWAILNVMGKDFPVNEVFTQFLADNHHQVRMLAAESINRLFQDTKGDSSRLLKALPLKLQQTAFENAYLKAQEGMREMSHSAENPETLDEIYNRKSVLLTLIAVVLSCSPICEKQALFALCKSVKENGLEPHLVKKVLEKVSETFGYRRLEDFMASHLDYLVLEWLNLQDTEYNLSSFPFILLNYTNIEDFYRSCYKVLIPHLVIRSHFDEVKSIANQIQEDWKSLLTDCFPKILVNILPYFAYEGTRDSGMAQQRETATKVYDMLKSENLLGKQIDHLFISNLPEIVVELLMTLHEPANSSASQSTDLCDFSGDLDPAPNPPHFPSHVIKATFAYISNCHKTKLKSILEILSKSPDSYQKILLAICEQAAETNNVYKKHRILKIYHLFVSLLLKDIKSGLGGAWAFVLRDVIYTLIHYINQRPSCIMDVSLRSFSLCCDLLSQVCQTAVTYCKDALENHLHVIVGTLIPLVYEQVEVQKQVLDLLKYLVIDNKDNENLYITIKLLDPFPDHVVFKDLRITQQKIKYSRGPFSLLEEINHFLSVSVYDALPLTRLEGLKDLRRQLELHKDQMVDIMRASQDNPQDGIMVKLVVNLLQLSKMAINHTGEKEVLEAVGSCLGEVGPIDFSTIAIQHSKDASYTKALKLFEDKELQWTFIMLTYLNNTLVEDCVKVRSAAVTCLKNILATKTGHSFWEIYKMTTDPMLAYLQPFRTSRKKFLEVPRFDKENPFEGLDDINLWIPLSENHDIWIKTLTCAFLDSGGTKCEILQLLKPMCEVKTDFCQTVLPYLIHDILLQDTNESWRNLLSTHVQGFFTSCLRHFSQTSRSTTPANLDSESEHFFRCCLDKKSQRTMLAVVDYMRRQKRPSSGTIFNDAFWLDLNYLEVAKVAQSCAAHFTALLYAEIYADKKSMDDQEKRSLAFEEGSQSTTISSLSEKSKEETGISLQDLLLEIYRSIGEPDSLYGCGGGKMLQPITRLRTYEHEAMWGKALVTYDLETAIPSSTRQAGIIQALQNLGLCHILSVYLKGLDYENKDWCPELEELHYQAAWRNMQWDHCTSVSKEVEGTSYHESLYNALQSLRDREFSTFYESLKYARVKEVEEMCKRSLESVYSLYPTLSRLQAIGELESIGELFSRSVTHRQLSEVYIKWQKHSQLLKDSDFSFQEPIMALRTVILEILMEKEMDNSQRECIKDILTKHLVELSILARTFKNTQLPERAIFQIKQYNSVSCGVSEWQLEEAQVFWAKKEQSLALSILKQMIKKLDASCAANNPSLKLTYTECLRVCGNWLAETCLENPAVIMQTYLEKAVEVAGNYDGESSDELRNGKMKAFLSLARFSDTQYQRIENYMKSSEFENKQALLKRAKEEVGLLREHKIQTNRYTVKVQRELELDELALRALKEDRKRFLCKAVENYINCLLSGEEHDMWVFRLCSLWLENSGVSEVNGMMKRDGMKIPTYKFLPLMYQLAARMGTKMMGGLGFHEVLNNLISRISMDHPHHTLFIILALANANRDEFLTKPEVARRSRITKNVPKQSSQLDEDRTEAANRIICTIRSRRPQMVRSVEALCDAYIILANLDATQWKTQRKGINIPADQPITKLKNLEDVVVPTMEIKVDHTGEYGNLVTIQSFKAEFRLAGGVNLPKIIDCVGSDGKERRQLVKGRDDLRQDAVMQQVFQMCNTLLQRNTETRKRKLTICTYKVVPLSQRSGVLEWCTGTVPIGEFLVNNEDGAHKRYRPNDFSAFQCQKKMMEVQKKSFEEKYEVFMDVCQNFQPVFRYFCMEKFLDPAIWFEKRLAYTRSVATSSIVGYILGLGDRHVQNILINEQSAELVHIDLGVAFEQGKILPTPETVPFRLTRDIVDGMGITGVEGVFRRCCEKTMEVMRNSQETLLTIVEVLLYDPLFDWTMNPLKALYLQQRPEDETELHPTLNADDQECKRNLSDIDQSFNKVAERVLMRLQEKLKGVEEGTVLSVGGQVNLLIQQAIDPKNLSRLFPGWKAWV
UniProt Q15046, sequence (whole entry, looked up): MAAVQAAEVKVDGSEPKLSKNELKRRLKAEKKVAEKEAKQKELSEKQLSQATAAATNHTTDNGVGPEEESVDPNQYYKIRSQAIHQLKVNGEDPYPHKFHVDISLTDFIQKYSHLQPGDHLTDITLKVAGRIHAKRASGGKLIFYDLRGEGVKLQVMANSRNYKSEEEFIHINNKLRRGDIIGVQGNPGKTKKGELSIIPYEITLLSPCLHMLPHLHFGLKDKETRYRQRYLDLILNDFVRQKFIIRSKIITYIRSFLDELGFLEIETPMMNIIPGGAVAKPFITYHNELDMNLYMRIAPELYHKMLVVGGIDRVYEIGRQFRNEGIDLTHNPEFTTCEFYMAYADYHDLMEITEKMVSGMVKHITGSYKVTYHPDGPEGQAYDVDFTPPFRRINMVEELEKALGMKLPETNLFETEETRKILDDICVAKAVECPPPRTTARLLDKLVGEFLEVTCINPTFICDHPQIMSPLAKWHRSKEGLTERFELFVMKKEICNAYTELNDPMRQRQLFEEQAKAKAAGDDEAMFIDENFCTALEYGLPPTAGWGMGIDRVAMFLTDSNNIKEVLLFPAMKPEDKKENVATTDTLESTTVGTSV
UniProt P50135, sequence (whole entry, looked up): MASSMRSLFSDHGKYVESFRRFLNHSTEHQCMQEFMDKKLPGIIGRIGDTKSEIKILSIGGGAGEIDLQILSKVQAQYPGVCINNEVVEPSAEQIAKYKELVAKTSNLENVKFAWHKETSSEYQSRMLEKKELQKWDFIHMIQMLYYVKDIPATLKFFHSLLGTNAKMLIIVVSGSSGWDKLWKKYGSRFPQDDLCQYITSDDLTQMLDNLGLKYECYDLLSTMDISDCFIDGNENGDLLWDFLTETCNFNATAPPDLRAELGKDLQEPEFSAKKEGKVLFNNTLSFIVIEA

With CC[C@H](C)[C@H](NC(=O)[C@H](CC(C)C)NC(=O)[C@@H](NC(=O)[C@H](CCCCN)NC(=O)[C@H](CCCNC(=N)N)NC(=O)[C@H](CCCCN)NC(=O)[C@H](CC(C)C)NC(=O)[C@H](Cc1ccc(O)cc1)NC(=O)[C@@H](NC(=O)[C@@H](NC(=O)[C@H](Cc1ccccc1)NC(=O)CN)C(C)C)C(C)C)[C@@H](C)O)C(=O)N[C@@H](CCCNC(=N)N)C(=O)N[C@@H](CC(C)C)C(=O)N[C@@H](CC(C)C)C(=O)N[C@@H](Cc1ccccc1)C(=O)N[C@H](C(=O)N[C@@H](CC(N)=O)C(=O)N[C@@H](CCCCN)C(=O)N[C@@H](CCCCN)C(=O)N[C@H](C(=O)N[C@H](C(=O)N[C@H](C(=O)N[C@@H](CCC(=O)O)C(=O)N[C@@H](CCCCN)C(=O)N[C@@H](CC(C)C)C(=O)N[C@@H](CCCNC(=N)N)C(=O)N[C@@H](CS)C(=O)N[C@H](C(=O)N[C@@H](CCCNC(=N)N)C(=O)N1CCC[C@H]1C(=O)N[C@@H](CO)C(=O)N[C@@H](CCCNC(=N)N)C(=O)N1CCC[C@H]1C(=O)N1CCC[C@H]1C(=O)N[C@@H](CCCNC(=N)N)C(=O)NCC(=O)N[C@@H](Cc1ccccc1)C(=O)O)C(C)C)[C@@H](C)CC)[C@@H](C)O)[C@@H](C)O)[C@@H](C)O the CC50 was 92.7 µM (HaCaT; cell viability, MTT).
COc1ccc(N2C(=O)N(c3c(C)cccc3Cl)Cc3cnc(Nc4ccc(C5CCN(C)CC5)cc4OC)nc32)nc1 gave an inhibition of -0.5% (ATM (Homo sapiens, UniProt Q13315); kinase activity; 0.5 µM).
O=C(O)C(F)(F)C(F)(F)C(F)(F)C(F)(F)F — result for “LDH activity in medium”: 6.27 mU/mL (hTERT-RPTEC-OAT1; LDH release; culture medium; concentration not given, 24 h, 96-well plate).
COc1ccc2c(c1OC)C(=O)c1c(cc(C)c(O)c1OC)C2=O has a cell viability of 65.7 ± 7.25% (HK-2 co-cultured with HepaRG; MTT; 266.67 µM, 24 h; reference: untreated control).
Under “point of departure”, O=c1ccc2ccccc2o1 is recorded as 760 µM (HepaRG 3D spheroids; cellular ATP; 24 h, high-content imaging).
For O=C1c2ccccc2C(=O)c2ccccc21, the cell viability was 85.7 ± 2.5% (HepaRG co-cultured with HK-2; MTT; 16.67 µM, 48 h; reference: untreated control).
COc1cc2c(Oc3ccc4[nH]c(C)cc4c3F)ccnc2cc1OCC1(N)CC1: “grade 1 or 2 sinus arrhythmia” 6.7% (paediatric recurrent refractory sarcoma; 8 mg/kg).
With CC(C)C[C@H](NC(=O)[C@@H](NC(=O)[C@H](CCCNC(=N)N)NC(=O)[C@H](CCCCN)NC(=O)[C@H](CCCCN)NC(=O)CNC(=O)CNC(=O)CNC(=O)c1ccc2c(c1)C(=O)OC21c2ccc(O)cc2Oc2cc(O)ccc21)[C@@H](C)O)C(=O)N[C@@H](CCCNC(=N)N)C(=O)N[C@@H](CCCCN)C(=O)N[C@@H](CC(N)=O)C(=O)N[C@@H](CC(=O)O)C(=O)N[C@@H](CCCNC(=N)N)C(=O)N[C@@H](CCCCN)C(=O)N[C@@H](CCCCN)C(=O)N[C@@H](CCCNC(=N)N)C(=O)N[C@@H](CS)C(N)=O the transport ratio was 7.1% (hCMEC/D3 monolayers; BBB permeability, Transwell, measured: CF-labelled compound; EGM-2 medium; concentration not given, 3 h, apical to basal; reference: fluorescence added apically).
C[C@H]1CN(c2n[nH]c3nc(N[C@H]4CC[C@H](NS(=O)(=O)CCC(F)(F)F)CC4)ncc23)CCO1 has a remaining binding of 1.01 (Lysine--tRNA ligase (KARS1, Homo sapiens, UniProt Q15046); Kinobeads competition, measured: KARS; 0.032 µM, unit not given; reference: vehicle).
Under “drug-related Fatigue incidence”, C[C@]1(CO)Cc2ncn(-c3ccc(C#N)c(Cl)c3)c2C(=O)O1 is recorded as 0% (healthy humans; 10 mg, fed).
The cell viability of Cc1cc2c(c(O)c1O)C(=O)c1c(O)cc(O)cc1C2=O is reported as 122 ± 4.78% (HK-2 co-cultured with HepaRG; MTT; 266.67 µM, 48 h; reference: untreated control).
CN[C@@H]1C[C@H]2O[C@@](C)([C@@H]1OC)n1c3ccccc3c3c4c(c5c6ccccc6n2c5c31)C(=O)NC4: viability “decreased” (MCF7; CellTiter-Glo; concentration not given, 24 and 48 h, positive control).
The necrotic cells of Oc1ccc(C(c2ccc(O)cc2)(C(F)(F)F)C(F)(F)F)cc1 is reported as 5.32 ± 2.1% (HepG2 spheroids; annexin V-FITC/PI flow cytometry; 1 µM, 24 h).
For CC(C)C[C@H](NC(=O)[C@H](CCCNC(=N)N)NC(=O)[C@H](CCCNC(=N)N)NC(=O)[C@H](CCCNC(=N)N)NC(=O)[C@@H]1CCCN1C(=O)[C@H](Cc1ccccc1)NC(=O)[C@H](Cc1ccc(O)cc1)NC(=O)[C@H](CCCNC(=N)N)NC(=O)[C@H](Cc1ccc(O)cc1)NC(=O)[C@@H](NC(=O)[C@H](CC(C)C)NC(=O)[C@H](Cc1ccc(O)cc1)NC(=O)[C@H](CCCNC(=N)N)NC(=O)[C@H](Cc1c[nH]cn1)NC(=O)[C@@H]1CCCN1C(=O)[C@H](Cc1c[nH]c2ccccc12)NC(=O)[C@H](Cc1ccc(O)cc1)NC(=O)[C@H](Cc1ccccc1)NC(=O)[C@@H]1CCCN1C(=O)[C@H](CCC(N)=O)NC(=O)[C@H](Cc1ccccc1)NC(=O)[C@@H]1CCCN1C(=O)[C@H](Cc1ccccc1)NC(=O)[C@H](CCCNC(=N)N)NC(=O)[C@H](Cc1c[nH]cn1)NC(=O)[C@H](CC(N)=O)NC(=O)[C@H](CS)NC(=O)[C@H](CCCNC(=N)N)NC(=O)[C@H](CO)NC(=O)[C@@H]1CCCN1C(=O)[C@@H](NC(=O)[C@H](Cc1ccccc1)NC(=O)[C@@H]1CCCN1C(=O)[C@H](CCCNC(=N)N)NC(=O)[C@H](CC(N)=O)NC(=O)[C@@H]1CCCN1C(=O)[C@H](Cc1ccccc1)NC(=O)[C@H](CCCNC(=N)N)NC(=O)[C@@H](N)Cc1ccccc1)C(C)C)[C@@H](C)O)C(=O)N[C@@H](CCC(N)=O)C(=O)N[C@@H](CCCNC(=N)N)C(=O)O, the CC50 was 32.4 µM (HaCaT; cell viability, MTT).
The IC10 of CC(C)c1c(C(=O)Nc2ccccc2)c(-c2ccccc2)c(-c2ccc(F)cc2)n1CC[C@@H](O)C[C@@H](O)CC(=O)O is reported as 35.5 µM (MCF7 AREc32 cells; cell confluency, IncuCyte imaging; 24 h, nominal concentration).
For CC(C)(c1ccc(O)cc1)c1ccc(O)cc1, “early apoptotic cells” read 2.71 ± 1.2% (HepG2 spheroids, dissociated; annexin V-FITC/PI flow cytometry; 0.1 µM, 24 h).
The IC50 of COc1cc(Nc2ncc(F)c(Nc3ccc4c(n3)NC(=O)C(C)(C)O4)n2)cc(OC)c1OC is reported as > 10 µM (HNMT (Homo sapiens, UniProt P50135); enzyme activity, inhibitor).
With CO[C@H]1C[C@@H]2CC[C@@H](C)[C@@](O)(O2)C(=O)C(=O)N2CCCC[C@H]2C(=O)O[C@H]([C@H](C)C[C@@H]2CC[C@@H](OC(=O)NCCOCCOCCOCCOCCOCCOCCOCCOCCC(=O)N3CCc4cc(Cn5nc(-c6ccc7oc(N)nc7c6)c6c(N)ncnc65)ccc4C3)[C@H](OC)C2)C[C@@H](O)[C@H](C)/C=C(\C)[C@@H](O)[C@@H](OC)C(=O)[C@H](C)C[C@H](C)/C=C/C=C/C=C/1C the diarrhoea incidence was 16.7% (patients with advanced solid tumours; intravenous, 6 mg weekly, any grade).
With CC[C@H](C)[C@H](NC(=O)[C@H](CO)NC(=O)CNC(=O)[C@H](CCCCN)NC(=O)[C@@H](NC(=O)[C@H](CC(N)=O)NC(=O)[C@H](Cc1ccccc1)NC(=O)[C@H](CC(N)=O)NC(=O)[C@@H](NC(=O)[C@H](CCCNC(=N)N)NC(=O)[C@@H]1CCCN1C(=O)[C@H](CCCNC(=N)N)NC(=O)[C@@H](NC(=O)[C@H](CCCNC(=N)N)NC(=O)[C@H](CCCNC(=N)N)NC(=O)[C@@H](NC(=O)[C@H](CCCNC(=N)N)NC(=O)[C@H](CO)NC(=O)[C@H](CC(C)C)NC(=O)[C@H](Cc1ccccc1)NC(=O)[C@H](CCCNC(=N)N)NC(=O)CNC(=O)[C@H](Cc1ccccc1)NC(=O)[C@H](CCCNC(=N)N)NC(=O)CNC(=O)[C@H](CCCNC(=N)N)NC(=O)[C@H](CCC(N)=O)NC(=O)[C@@H](NC(=O)[C@@H](N)CC(C)C)C(C)C)[C@@H](C)CC)[C@@H](C)CC)[C@@H](C)CC)[C@@H](C)CC)C(=O)O the HC50 was 3.11 log10 µg/mL (rat erythrocytes; haemolysis; 1 h, 37 °C, 2% erythrocytes in PBS).

Repeated from above:
O=C(O)C(F)(F)C(F)(F)C(F)(F)C(F)(F)F — result for “LDH activity in medium”: 6.27 mU/mL (hTERT-RPTEC-OAT1; LDH release; culture medium; concentration not given, 24 h, 96-well plate).
COc1ccc2c(c1OC)C(=O)c1c(cc(C)c(O)c1OC)C2=O has a cell viability of 65.7 ± 7.25% (HK-2 co-cultured with HepaRG; MTT; 266.67 µM, 24 h; reference: untreated control).
